# Results gathered from unrelated publications.
# Protocols differ between the studies behind these lines. ± gives the spread as reported.
# PRMT8: Protein arginine N-methyltransferase 8 (PRMT8, Homo sapiens, UniProt Q9NR22)
# UniProt Q9NR22, sequence (whole entry, looked up): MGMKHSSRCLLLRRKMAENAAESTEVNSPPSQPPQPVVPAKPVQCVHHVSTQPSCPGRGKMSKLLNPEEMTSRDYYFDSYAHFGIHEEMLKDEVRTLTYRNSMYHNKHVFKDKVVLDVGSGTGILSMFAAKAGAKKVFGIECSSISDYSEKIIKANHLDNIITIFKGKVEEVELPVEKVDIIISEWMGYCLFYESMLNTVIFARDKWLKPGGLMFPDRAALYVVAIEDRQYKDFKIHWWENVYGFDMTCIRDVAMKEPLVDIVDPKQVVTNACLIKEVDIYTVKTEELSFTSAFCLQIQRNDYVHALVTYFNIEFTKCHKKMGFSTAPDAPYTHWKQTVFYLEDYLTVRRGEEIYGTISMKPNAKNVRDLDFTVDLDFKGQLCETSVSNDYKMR
# Kcnmb1 with BK alpha subunit: Calcium-activated potassium channel subunit beta-1, with BK alpha subunit (Kcnmb1, Rattus norvegicus, UniProt P97678)
# UniProt P97678, sequence (whole entry, looked up): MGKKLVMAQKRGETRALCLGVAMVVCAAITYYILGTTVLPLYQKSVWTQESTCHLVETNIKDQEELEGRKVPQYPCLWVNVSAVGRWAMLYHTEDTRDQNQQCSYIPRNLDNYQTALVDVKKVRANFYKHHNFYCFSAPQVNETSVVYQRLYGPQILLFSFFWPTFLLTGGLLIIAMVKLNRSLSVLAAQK
# UniProt Q923J1, sequence (whole entry, unmodified, looked up): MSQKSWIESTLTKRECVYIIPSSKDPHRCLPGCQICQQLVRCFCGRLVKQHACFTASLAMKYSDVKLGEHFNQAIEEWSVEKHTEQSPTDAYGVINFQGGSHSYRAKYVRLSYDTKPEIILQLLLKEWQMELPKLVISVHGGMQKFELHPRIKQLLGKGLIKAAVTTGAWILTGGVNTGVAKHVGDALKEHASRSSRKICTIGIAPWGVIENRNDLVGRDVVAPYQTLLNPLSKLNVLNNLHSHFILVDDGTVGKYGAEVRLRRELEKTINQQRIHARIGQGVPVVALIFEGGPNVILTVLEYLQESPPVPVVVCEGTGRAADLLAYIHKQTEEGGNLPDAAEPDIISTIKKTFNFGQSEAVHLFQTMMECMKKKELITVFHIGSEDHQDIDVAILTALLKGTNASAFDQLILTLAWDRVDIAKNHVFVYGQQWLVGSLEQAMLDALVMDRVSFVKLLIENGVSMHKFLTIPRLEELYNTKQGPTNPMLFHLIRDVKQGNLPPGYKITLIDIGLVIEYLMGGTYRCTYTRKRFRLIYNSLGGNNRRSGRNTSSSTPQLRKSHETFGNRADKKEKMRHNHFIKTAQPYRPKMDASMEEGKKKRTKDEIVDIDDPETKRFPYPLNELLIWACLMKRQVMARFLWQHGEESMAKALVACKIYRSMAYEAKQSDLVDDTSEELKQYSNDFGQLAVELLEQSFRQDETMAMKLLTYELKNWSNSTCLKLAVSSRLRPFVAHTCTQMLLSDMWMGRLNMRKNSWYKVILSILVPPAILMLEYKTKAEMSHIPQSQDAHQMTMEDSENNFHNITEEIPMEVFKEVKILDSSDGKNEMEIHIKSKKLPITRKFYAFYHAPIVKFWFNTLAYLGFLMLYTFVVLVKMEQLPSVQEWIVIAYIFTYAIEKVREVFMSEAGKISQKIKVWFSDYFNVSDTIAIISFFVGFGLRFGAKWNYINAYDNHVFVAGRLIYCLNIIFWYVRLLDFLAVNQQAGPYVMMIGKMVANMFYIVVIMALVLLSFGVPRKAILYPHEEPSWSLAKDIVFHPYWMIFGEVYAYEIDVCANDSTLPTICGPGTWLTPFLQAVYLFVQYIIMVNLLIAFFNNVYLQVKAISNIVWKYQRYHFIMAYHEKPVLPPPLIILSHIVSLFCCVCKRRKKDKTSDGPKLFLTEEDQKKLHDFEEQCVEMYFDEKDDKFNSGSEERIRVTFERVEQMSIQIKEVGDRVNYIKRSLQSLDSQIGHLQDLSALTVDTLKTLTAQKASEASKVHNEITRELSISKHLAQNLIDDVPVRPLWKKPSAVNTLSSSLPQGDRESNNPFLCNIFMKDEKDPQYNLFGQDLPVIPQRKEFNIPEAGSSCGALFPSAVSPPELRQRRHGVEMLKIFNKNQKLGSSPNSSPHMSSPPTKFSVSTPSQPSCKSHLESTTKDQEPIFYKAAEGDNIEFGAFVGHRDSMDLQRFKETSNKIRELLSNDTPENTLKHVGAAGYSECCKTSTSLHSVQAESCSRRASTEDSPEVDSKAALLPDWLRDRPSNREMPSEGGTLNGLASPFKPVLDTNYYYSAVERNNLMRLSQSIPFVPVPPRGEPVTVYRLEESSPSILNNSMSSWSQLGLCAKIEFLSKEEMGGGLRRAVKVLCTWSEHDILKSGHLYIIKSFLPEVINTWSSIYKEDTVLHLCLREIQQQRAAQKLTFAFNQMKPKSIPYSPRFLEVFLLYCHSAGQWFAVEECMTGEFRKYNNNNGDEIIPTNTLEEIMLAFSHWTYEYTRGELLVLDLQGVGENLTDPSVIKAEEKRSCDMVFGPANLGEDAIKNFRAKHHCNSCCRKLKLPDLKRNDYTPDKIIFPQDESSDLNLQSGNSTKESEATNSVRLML
# UniProt Q12791, sequence (whole entry, looked up): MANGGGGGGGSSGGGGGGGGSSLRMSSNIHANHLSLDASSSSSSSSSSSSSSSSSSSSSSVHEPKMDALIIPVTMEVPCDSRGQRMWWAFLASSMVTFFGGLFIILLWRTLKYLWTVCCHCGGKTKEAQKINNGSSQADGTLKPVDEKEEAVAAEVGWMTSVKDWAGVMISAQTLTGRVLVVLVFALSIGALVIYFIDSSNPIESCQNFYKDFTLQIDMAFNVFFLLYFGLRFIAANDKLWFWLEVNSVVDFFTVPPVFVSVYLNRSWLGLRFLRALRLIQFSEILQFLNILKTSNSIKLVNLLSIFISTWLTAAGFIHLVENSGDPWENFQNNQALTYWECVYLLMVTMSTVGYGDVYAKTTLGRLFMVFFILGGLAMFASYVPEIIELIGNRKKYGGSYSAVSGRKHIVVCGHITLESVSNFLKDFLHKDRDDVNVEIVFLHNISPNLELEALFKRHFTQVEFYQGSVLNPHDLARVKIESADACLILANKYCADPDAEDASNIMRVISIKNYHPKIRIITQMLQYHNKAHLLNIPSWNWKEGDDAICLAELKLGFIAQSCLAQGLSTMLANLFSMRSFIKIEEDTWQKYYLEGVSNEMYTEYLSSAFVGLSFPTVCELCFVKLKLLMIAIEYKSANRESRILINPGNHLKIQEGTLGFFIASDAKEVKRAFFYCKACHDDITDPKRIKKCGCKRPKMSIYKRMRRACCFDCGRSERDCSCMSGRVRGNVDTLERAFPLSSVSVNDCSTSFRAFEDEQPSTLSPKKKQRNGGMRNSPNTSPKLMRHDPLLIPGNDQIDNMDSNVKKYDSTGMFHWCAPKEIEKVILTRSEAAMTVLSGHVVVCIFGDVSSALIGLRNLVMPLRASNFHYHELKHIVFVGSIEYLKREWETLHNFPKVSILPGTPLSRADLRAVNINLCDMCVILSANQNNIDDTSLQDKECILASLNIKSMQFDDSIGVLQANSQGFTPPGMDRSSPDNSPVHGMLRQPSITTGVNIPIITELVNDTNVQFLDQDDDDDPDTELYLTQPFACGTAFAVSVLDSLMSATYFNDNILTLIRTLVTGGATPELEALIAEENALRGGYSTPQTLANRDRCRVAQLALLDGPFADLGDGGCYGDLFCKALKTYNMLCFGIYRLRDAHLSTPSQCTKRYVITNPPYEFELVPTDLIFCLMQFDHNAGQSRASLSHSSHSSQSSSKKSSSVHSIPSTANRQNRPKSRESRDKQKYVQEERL
# UniProt P43088, sequence (whole entry, looked up): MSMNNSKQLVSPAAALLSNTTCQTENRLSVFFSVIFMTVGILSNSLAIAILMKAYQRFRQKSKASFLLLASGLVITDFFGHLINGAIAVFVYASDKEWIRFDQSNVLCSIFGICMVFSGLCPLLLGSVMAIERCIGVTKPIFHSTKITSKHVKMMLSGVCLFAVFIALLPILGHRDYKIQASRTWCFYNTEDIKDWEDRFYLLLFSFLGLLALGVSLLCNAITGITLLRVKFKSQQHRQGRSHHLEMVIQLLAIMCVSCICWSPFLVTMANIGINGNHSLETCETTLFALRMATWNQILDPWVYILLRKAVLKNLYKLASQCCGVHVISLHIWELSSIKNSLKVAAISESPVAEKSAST
# UniProt Q9QXD6, sequence (whole entry, looked up): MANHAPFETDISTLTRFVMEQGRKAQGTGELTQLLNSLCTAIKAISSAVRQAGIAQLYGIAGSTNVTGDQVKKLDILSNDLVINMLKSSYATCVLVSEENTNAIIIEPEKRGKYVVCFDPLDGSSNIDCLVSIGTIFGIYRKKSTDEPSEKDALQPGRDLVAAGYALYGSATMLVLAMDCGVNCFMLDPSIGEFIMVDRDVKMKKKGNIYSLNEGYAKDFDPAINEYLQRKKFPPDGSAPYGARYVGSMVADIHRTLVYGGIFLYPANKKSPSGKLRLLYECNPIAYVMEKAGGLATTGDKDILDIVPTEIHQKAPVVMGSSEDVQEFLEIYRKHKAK
# UniProt Q96D96, sequence (whole entry, unmodified, looked up): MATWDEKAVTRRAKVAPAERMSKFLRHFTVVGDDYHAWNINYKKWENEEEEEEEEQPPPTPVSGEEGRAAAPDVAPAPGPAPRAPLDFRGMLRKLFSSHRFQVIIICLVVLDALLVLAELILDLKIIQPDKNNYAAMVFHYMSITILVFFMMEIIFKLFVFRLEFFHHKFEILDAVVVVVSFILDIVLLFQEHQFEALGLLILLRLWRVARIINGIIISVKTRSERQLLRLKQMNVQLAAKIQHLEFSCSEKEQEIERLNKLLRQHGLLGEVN
Structure (SMILES),target,test,system,setting,Hill coefficient
CN(C)C(=O)C(CCN1CCC(O)(c2ccc(Cl)cc2)CC1)(c1ccccc1)c1ccccc1,"Calcium-activated potassium channel subunit alpha-1, with LRRC26 γ1 subunit (KCNMA1, Homo sapiens, UniProt Q12791)","BK channel conductance, inside-out patch clamp",,"BKα/γ1, Vm 90 mV, nominally Ca2+-free",0.721 ± 0.065
O=P(O)(O)OC[C@H]1O[C@@](CO)(OP(=O)(O)O)[C@@H](O)[C@@H]1O,"Fructose-1,6-bisphosphatase 1 (Mus musculus, UniProt Q9QXD6)",,,untagged wild type,1.4 ± 0.15
C(/C=C/c1sc2c3ccccc3ccc2[n+]1CCCc1ccccc1)=C1/Sc2c(ccc3ccccc23)N1CCCc1ccccc1.[I-],PRMT8,"inhibitor, scintillation proximity",,with: biotinylated histone H4 peptide substrate,0.87
COc1ccc(C(=O)NC(=S)Nc2ccc(O)c(-c3nc4ccc(C)cc4o3)c2)cc1[N+](=O)[O-],Kcnmb1 with BK alpha subunit,BK channel current,CHO with alpha and beta1,,0.39 ± 0.2
c1ccc2c(c1)CCC[C@H]2Nc1nc2ccccc2[nH]1,"Transient receptor potential cation channel subfamily M member 7 (Trpm7, Mus musculus, UniProt Q923J1)","calcium influx, inhibitor, aequorin luminescence",HEK293T expressing wild-type Trpm7,,1.46 ± 0.07
Cc1n[nH]c(C)c1CCc1nc2c3ccccc3nc(SCc3ccc([N+](=O)[O-])cc3)n2n1,Kcnmb1 with BK alpha subunit,BK channel current,CHO with alpha and beta1,,0.06
CCOC(=O)C1=C(C)NC(C)=C(C(=O)OC)C1c1cccc([N+](=O)[O-])c1 (stereo not drawn),"Voltage-dependent L-type calcium channel subunit alpha-1C (Cacna1c, Rattus norvegicus, UniProt P22002)","dihydropyridine site binding, antagonist, radioligand binding",,,1.1
N#Cc1ccc(COC[C@H]2O[C@@H](n3c(NCc4ccc(Cl)c(Cl)c4)nc4c(N)ncnc43)[C@H](O)[C@@H]2O)cc1,"Transient receptor potential cation channel subfamily M member 7 (Trpm7, Mus musculus, UniProt Q923J1, F924W)","calcium influx, inhibitor, aequorin luminescence",HEK293T expressing Trpm7,,2.72 ± 0.14
CC1(C)C(/C=C/C=C2/N(CCCc3ccccc3)c3ccc(Cl)cc3C2(C)C)=[N+](CCCc2ccccc2)c2ccc(Cl)cc21.[Br-],PRMT8,"inhibitor, scintillation proximity",,with: biotinylated histone H4 peptide substrate,3.33
O=C(Nc1ccc(F)cc1)c1nnc(/C(Cl)=C\c2cccc([N+](=O)[O-])c2)s1,Kcnmb1 with BK alpha subunit,BK channel current,CHO with alpha and beta1,,0.27 ± 0.1
CCCC[C@H](NC(=O)[C@H](C)c1c(C)[nH]c2ccc(O)cc12)c1ncc(-c2cc3ccccc3nc2OC)[nH]1,"Prostaglandin F2-alpha receptor (PTGFR, Homo sapiens, UniProt P43088)",,,,0.5
N=C(N)Nc1nc2ccccc2[nH]1,"Voltage-gated hydrogen channel 1 (HVCN1, Homo sapiens, UniProt Q96D96, F149L/F150A)","proton current, inhibitor, inside-out patch clamp",,,0.94 ± 0.04
